Results pooled from the literature.
A part holds a random share of what one study measured.

Set 1
Target: Interferon regulatory factor 5, full length, phosphomimetic (IRF5, Homo sapiens, UniProt Q13568-2, residues 1-514, K96S/S451D/S453D/S456D/S462D)
Technique: protein-binding microarray
Form: double-stranded DNA, one strand shown
Medium: in vitro
Concentration: 250 nM
Setting: 60-bp whole probe
Together with: salmon DNA 0.4 mg/ml
Reference: random background probes
Reading: higher = stronger binding
All sequences stand within: GCCTAGCAC … GTCTTGATTCGCTTGACGCTGCTG
| Strand | log fluorescence [z-score] |
| --- | --- |
| TCACATTGCTTTCTCTTACTGTGCTAG | 2.58 |
| TCATCTCTGGGTCGGGCACTGTGCTAG | -0.312 |
| TTTGCTTTCCTTCTTGAACTGTGCTAG | 1.72 |
| GACGGTTTCGGTCTCGCGACGTGCTAG | 9.73 |
| TTAGAATCCAGTTTCGATTAGTGCTAG | 9.87 |
| CTCTTTCTCTGCTACCCTTTGGTGCTA | 1.95 |
| GACGGACTGCTAGTGCTGACGTGCTAG | -0.725 |
| TTCTTTTTTTTCTTTAAAAGGTGCTAG | 1.64 |
| TTATGTATCGACTATCGGTTAGTGCTA | 8.52 |
| GACCGTCTCCTTTTCCTGACGTGCTAG | 0.106 |
| GACGGTATCGGACTGGTGACGTGCTAG | 0.728 |
| TCCACTTGTCTTTTCACTTTGTGCTAG | 1.45 |
| GACGGTATCTTTTTCCTGACGTGCTAG | 0.607 |
| TTAGGTATCGACGATCGGTTAGTGCTA | 2.57 |
| TTAGGTATCCTTTTCCTTAAGTGCTAG | 0.733 |
| GACGATTTCGGGACTGGAGTCGTGCTA | 1.87 |
| TTAGATTTCAGTCTCGGTTAGTGCTAG | 3.22 |
| TTTGGTCTCGGACTGGGTTAGTGCTAG | 0.175 |
| TGAGGTCTCGGTTTCGGTTAGTGCTAG | 8.63 |

Set 2
Target: RNA binding protein fox-1 homolog 2, RRM domain, GST-SBP tag (RBFOX2, Homo sapiens, UniProt O43251-10, residues 100-194)
Technique: RNA Bind-n-Seq
Form: RNA
Medium: in vitro
Concentration: 365 nM
Setting: natural RNA segment, single round, ends assumed
Reference: no-protein control
Reading: higher = stronger binding
All sequences stand within: GGGAGUUCUACAGUCCGACGAUC … UGGAAUUCUCGGGUGCCAA
Construct (chain): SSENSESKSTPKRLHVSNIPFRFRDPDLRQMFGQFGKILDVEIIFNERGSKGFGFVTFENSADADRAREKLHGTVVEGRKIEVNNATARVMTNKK
| Strand | RBNS enrichment (R) |
| --- | --- |
| AUGUAUUACUCUUCUUCUUUUAAUUUAUGUUAGAACGAGAAAAGCUUAAUACAACAGGUGCCCAGAAUACUUGCAGUGUAAAUGAAGAUUGGAUUUUUGUAUAAAAAGAU | 0.603 |
| UGGCAAAGCUGCAGCUUUUUCCUGCAUUUGGUCCCAUAAUCUUAAUAGAAACAAUUUCCUAUUACACAGAAAUGACUAAUUCCAGAGUCUCAUGAUAUAAUUUGCUAUAA | 0.311 |
| ACUUGCUACUAGUGUUGUUAAUGAAGUAUAGGCCUUGGAACAUUUAAGAAAACUGGUCUUCAGAUAGUUAAGGGCUUGGGAUAAUUUAAGUGAAAAGUGAGAUCAGUAAU | 1.28 |
| ACAUUCCAUUUUGGUAGCAAUAUGCAGUCCGAAUGCAUGCAUUCAUAAGUCCAUUUGGCCAAGUCAGCCUGUGUGCUACUGAACUGUCAAGAGAUUGCCACUCUCAUAGG | 1.73 |
| GUCUUCAUAUUUACCUUCUGAGGUCAUUUUUUAACUUAAUGUGUUACUACAAAGAUUUGCAGAUCUUUAAUCAAGCACUAUGUUAAUACUGUAAUAUCAAAAUACUAUGU | 0.612 |
| GUCCCAAGGUGAGCUCCGUGGACAGCAAAGCGCAUUUCUUCCAGUUGGCAUGUUGUCGAAGCCAAUGGCAGCUUGACUGAUGUGAGGUGGCUAUUCCACCUGGUUCAAGA | 0.896 |
| UGUUGCUAAAUACUAUUUAUGUAAGUCUGAAAAGGUUUUUAACCCAUAUAAAACAUUUAAAUAAUGCAGGUUAUUAUGAGCAAGUUAGCUUUGAGAACCCUCCUUUUAGU | 0.439 |
| UGUGGGAUGAGAUAACACCACAUCCUGCAGCUGUGAAGGGGGAUGGACAAGGGACGACGGCCGACGGCAGAGCAUCAGCAGCCGACACAUAGUUCGGGUCGGGGCCUUGG | 0.461 |

Set 3
Target: Hepatocyte nuclear factor 3-alpha (Foxa1, Mus musculus, UniProt P35582, residues 1-468, full length assumed)
UniProt P35582, sequence (whole entry, looked up): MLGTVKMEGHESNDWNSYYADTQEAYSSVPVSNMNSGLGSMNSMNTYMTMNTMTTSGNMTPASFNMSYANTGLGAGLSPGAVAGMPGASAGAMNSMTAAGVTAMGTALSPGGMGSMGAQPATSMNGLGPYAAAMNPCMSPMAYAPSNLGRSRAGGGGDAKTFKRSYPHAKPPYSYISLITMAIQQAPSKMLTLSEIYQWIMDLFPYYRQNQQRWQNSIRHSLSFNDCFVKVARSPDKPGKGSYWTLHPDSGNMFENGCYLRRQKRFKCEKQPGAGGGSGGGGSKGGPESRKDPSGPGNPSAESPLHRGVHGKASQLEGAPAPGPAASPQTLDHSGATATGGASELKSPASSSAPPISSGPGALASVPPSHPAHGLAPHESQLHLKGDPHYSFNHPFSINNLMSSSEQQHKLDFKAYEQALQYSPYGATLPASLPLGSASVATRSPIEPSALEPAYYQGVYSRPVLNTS
Technique: EMSA with sequencing
Form: double-stranded DNA, one strand shown
Medium: in vitro
Concentration: 10 and 20 nM
Setting: whole designed probe, mean of two concentrations, ends assumed
Reference: negative control set to 0
Reading: higher = stronger binding
All sequences stand within: GTGAGCGGTGCCCATTGATGGGGAAC … TTTCACTGGGATCGTGGGGAC
| Strand | normalised bound fraction [ratio] |
| --- | --- |
| GGAATACCCCTTTGATTTTACTGGTGACGTATACCCACTAGTGTACTGAGACGGAAAAAAAAGTCTTTAGAACTCAGATAAATATACAGTTCAAAATTACTATTTATGTATGTGTGATCTCATTATTAAATTACTCTATCATGTTTGTGGAATTAGCAGTTTCTCTTTGAATTTGGATGTTTCTAGTTATGTG | 0.0217 |
| ATCTTCCCCCTCTTCCTTGCCCCACCAGCTCACCTTCCCGGGTTATTTGCACAAAGGAAAATAAATAAAGCCGGCATTCGTTAACGCAGTTCTGGCGCAAACTGCTGTTTGCTCTGCATGAATCATGGTCCTTACGCGAGGCGTGGCTCCGGGAGAGCAAAGCACCGTGTCAGGCGCATGATCCGGGCTCGCC | 0.385 |
| CTCATTCCTTGCTTCCGCCAATAATCTGACTAGTAAAGAAGTCACTGCATGCCACAAATTGTGAGTGACTCAGTCCTCAACAAGGAAGTTATTTATTTACTTATTTAATATATGAGTGTCACAGATGCAAATTCCATCTTGAGAATACCAACTCCTGATGCCAACTGATTGTCAGTCATGGCTACAACAGGAG | 0.419 |
| GAAAGAAGATCAGTATACATTTGAAGTACAGTAACTTGAGCATATCTTTCCTATTCATCTCACTGAACTTGGATTTCTCTAAATATGGCAATGTAATCTGGCAAATTTTAGATTACTCAACAATCTCTACAGACACTTTAAATTCAAGTACATTTACTCTGTGTAGAGGAAGCACATGTCTAATAAAAGCCTT | -0.0201 |
| ATGTGTGTATTTGTACTTAATTTTGGGCAATTGGAAAAAAACTTTTCTATGTGATCCTTCAGCCTAGCAACGAATCAAGCTACTTTTCTTCATGTTTACTTAATTATTTTGTATGCTCCCCATCCAAGCAAGCAATTCAAGTATATGTAACAATCAGAGGGGACCAAACATAAACCAAAAAATGGTCATATGT | 0.394 |

Set 4
Target: Histone acetyltransferase KAT6A, winged helix 2, GST fusion (KAT6A, Homo sapiens, UniProt Q92794, residues 85-181)
Technique: protein binding microarray
Form: double-stranded DNA, one strand shown
Medium: in vitro
Concentration: not given
Setting: 8-mer, flanks averaged, mean of 2 arrays, mostly near background
Reference: not given
Reading: higher = stronger binding
Target sequence (chain): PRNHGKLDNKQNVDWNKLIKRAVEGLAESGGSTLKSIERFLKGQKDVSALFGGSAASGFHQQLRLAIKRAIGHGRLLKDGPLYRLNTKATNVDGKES
| Strand | E-score |
| --- | --- |
| GCTCGAGA | 0.0221 |
| AATGAAAT | 0.154 |
| CATCGGGC | 0.0853 |
| AACAAAGG | -0.1 |
| ACCTCATG | -0.178 |
| ATTACAGC | 0.0183 |
| CAGGCATC | 0.0621 |
| ACTTTGAC | 0.0271 |
| ATGCATTC | -0.0405 |
| GCAGTCCC | 0.0253 |
| GTGTCTTA | -0.105 |
| GACTTTGC | -0.114 |
| GACCACGA | 0.0121 |
| ACACATTG | -0.039 |
| AGTATGGA | 0.117 |
| ACGGAAGT | -0.212 |
| GGCCTTTA | -0.0815 |
| ACTAGTCT | -0.17 |
| GATGGAGA | -0.00789 |
| AATCCAGC | 0.0548 |
| GGAGGTAA | -0.0521 |
